# Experimental data pooled from the literature.
# Each numbered part is a random draw from the data of one study; scales do not carry over between parts. Positions count from the first letter of the parent shown.

# Set 1
# Target: ABI1, truncated, D143A, DHFR fusion (Arabidopsis thaliana)
# Method: DHFR PCA, deep sequencing
# Medium: yeast
# Notes: methotrexate growth selection, single substitutions
# Together with: (+)-ABA 1.4 µM
# Relative to: wild-type fitted maximum
# Direction: higher = stronger binding
# Starting sequence: PYL1, truncated, DHFR fusion (Arabidopsis thaliana); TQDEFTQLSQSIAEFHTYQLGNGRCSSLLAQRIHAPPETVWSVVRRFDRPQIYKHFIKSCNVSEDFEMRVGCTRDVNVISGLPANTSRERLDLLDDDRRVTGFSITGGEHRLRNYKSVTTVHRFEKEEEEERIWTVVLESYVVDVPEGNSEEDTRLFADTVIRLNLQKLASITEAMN
Substitution,relative binding score [%]
K58T,3.12
A175N,42.2
Q51I,-7.36
E129T,62.1
C72N,23
I105H,-11.1
R99F,87
A30N,9.2
R69F,14.5
N149R,11.9
E151L,33.6
I52R,36.1
D153S,-5.36

# Set 2
# Target: RNA binding protein fox-1 homolog 2, RRM domain, GST-SBP tag (RBFOX2, Homo sapiens, UniProt O43251-10, residues 100-194)
# Method: RNA Bind-n-Seq
# Molecule type: RNA
# Medium: in vitro
# Tested at: 365 nM
# Notes: natural RNA segment, single round, ends assumed
# Relative to: no-protein control
# Direction: higher = stronger binding
# All sequences stand within: GGGAGUUCUACAGUCCGACGAUC … UGGAAUUCUCGGGUGCCAA
# Target sequence (chain): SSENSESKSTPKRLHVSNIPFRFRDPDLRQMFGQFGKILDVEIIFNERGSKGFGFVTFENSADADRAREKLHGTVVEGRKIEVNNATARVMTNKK
Strand,RBNS enrichment (R)
UAGCAGAUGCCGCAACUCCACACAGUGUGUAAAAUAUAUACAACCAAAAAUCAGCUUUUGCAGGUCUUUAUUUCUUCUGUAAAACAGUAGGUAACUUUUCCUAGGUUUCA,0.416
CAUUAUUAGAAAUUCCUUCUCUCAUUAUUUCAGGAUUAGUAGUUCUGUGUAAUUCAUUUUACAAUUUCAAAUUGUUCUGGUGCCAUAAAGUAUACAGACUACUUUAAAGA,0.444
AUUAUAAACAUUUUUCAUUAUUGGAAAGUGUGAAGGGGACCUUCUGCAUACCUGUUUAGAACCAAAACCACCACGACACGGUUUUUAUAGUGUCUGUAUAUUUGUGAUGC,0.522
CACUCACUCCUGUUCCCUUAUUCUUCAUUCCCAGUAAUUCCCUACCAAAUGGUGGGGACCCUGAGCCCAGCUCUGACCAGGUAGAGCCUGUGCAGCCUGGGCUGCUGUCA,0.335
GAUCCUGAGCUGUGUCCUCUGUGAGGACUUCCCUCCCAGGCUUCAAUCCAGAUGUUUCGUUUCCAGGUGCAGCAGCGCUGCCUUGUGCUUUCCUGUGACUUUAAGAGCAU,0.804
UUCUGCAUCCACCUAUGGCAUCUGGGUUUGCUGUCACCCUACUUUGUUGUGGCCUUCCUGGUGUAAGAGUCUGUGUUCCUUGGUCACCUCUCCUGAUUCAGACCAGCUCC,0.948
AGAGUAAUAAAUAUACUUGCUUUAAUUCUUAAGCAUAAGUAAACAUGAUAUAAAAAUAUAUGCUGAAUUACUUGUGAAGAAUGCAUUUAAAGCUAUUUUAAAUGUGUUUU,0.474
UGUUUUUUUCUAGCCUACCUAUAGUUGUUGGCCUUUUUGCAUAUAACUCUCGGGUAAUAUUUUGAAGCAUGCUGACCAUCCAGGCAUAUAGUAUUUUCAAGAAAUGACUG,0.597
AAAUAAACUUGUGAAGUCUGUUUAUUUUGAAGUAUUGGUGAACUAGGCUUGCUAAUUGAUAACUGCAGCAGUUUGUGUUUACUCCAGUUCAUCAGCUUAGGUCAUUUGAA,0.912
AAUUUCUAGCUGUCCUUGCAGAAUUAUAGUGAAUACCAAAAUGGGGUUUUGCCCCAGGAGGCUCCUACCAGUUUCUGCUUUCCAGUUGCAGAGUUUGGGGGGUUAUUCAU,0.321
CAGAAUUGUAAUGUGUUUUCAUUUCUCUGUAGGAUUCACCUCUCACCAGCGUCUGUCUUAAAGGUAGGGCCAAUUUCAUGGAGCAUUUUUCUGUGUGUGUCCUUGUUGCU,0.57
AAAAGGGAACCCAAGCAGUAGAGAGCGAUAUUGGAGUCUUUUGUUCAUUCAAAUCUUGGAUUUUUUUUUUUCCCUAAGAGAUUCUCUUUUUAGGGGGAAUGGGAAACGGA,0.452

# Set 3
# Target: Histone acetyltransferase KAT6A, winged helix 2, GST fusion (KAT6A, Homo sapiens, UniProt Q92794, residues 85-181)
# Method: protein binding microarray
# Molecule type: double-stranded DNA, one strand shown
# Medium: in vitro
# Tested at: not given
# Notes: 8-mer, flanks averaged, mean of 2 arrays, mostly near background
# Relative to: not given
# Direction: higher = stronger binding
# Construct (chain): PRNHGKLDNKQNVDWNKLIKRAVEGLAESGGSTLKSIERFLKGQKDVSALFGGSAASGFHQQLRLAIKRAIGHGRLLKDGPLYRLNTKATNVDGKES
Strand,E-score
GGGGCCCA,0.193
ATCATCTC,0.0878
CCCTGCGG,0.145
ACTCATCC,-0.0782
AGTGTTTA,-0.00304
AGATGGGG,-0.0917
CAGCAAGA,0.188
AATTAATC,0.205
ACCGCTCC,0.124
AGTGGACC,0.0213
ATACCCTC,0.0773
AAACGGTT,-0.242
AAAAGAGG,-0.103
ACGCTGGC,0.0495
ATCGACCA,-0.0646
AATTTCAG,0.0173
AGAGAACC,-0.158
AACGGTGA,-0.0491

# Set 4
# Target: Prothrombin, mature alpha-thrombin (F2, Homo sapiens, UniProt P00734)
# Method: aptamer microarray, sandwich
# Molecule type: DNA with 2'F-ANA
# Medium: in vitro
# Tested at: 200 nM
# Notes: whole 15-mer aptamer, many near background
# Together with: Cy3 exosite-II aptamer, 400 nM
# Direction: higher = stronger binding
# Strand: GGTTGGTGTGGTTGG
Modification,mean fluorescence intensity [a.u.]
2'F-ANA at 3 4 5 9 10 11 12 14,53.6
2'F-ANA at 3 4 5 8 9 10 11 15,50.1
2'F-ANA at 3 4 5 9 10 11 12 14 15,49.4
2'F-ANA at 3 4 6 10 13 14,179
2'F-ANA at 1 6 9 10 11 12 13 14 15,63.5
2'F-ANA at 1 5 7 9 10 11 12 13 14,43.7
2'F-ANA at 3 4 5 6 9 10 12 13,48.6
2'F-ANA at 4 6 7 8 9 10 11,91.5
2'F-ANA at 2 5 8 9 11 12 14,51.5
2'F-ANA at 1 2 3 6 7 10 11 14,48.9
2'F-ANA at 1 3 4 7 10,65.8
2'F-ANA at 1 2 6 7 8 10 14,49
2'F-ANA at 1 2 3 4 6 7 8 9 10 11 12 14,70.5
2'F-ANA at 2 3 5 7 8 9 10,57.8
2'F-ANA at 2 3 4 5 6 8 10 14,62.6
2'F-ANA at 1 8 9 10 11 13 14,81.6
2'F-ANA at 2 3 5 7 12 13,165

# Set 5
# Target: RING finger protein unkempt homolog, zinc fingers 1-6, GST-SBP tag (UNK, Homo sapiens, UniProt Q9C0B0, residues 30-357)
# Sequence of UniProt Q9C0B0 (30-357, looked up): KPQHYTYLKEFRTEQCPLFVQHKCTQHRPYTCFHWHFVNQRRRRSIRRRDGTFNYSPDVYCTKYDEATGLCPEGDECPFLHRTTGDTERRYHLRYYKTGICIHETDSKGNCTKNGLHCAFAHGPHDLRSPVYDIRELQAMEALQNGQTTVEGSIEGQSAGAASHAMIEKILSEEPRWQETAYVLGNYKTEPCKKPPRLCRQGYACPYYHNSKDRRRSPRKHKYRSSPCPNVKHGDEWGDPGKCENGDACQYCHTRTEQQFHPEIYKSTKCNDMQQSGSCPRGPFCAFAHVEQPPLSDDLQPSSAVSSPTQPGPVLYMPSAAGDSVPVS
# Method: RNA Bind-n-Seq
# Molecule type: RNA
# Medium: in vitro
# Tested at: not given
# Notes: RNA with constant flanks, human-mouse chimeric sites, ends assumed
# Relative to: input RNA pool
# Direction: higher = stronger binding
# All sequences stand within: GGGAGUUCUACAGUCCGACGAUC … CAACAGAGGAUUGAGCAUCA
Strand,bound/input enrichment [ratio]
AAAGAGAAAGCUAAAACACUAAUAGAGAAGAGGAUUGGCAAAGAGAAUUUCAUAGAGAAACUAGGAUUUAUUAGCAAACAUGAGUUAGUAUUCCAGACGUCUCAGAAACCCCAGCCAAAC,2.47
GAUCAUGGAACCAGAAUAGAAAUGAAGAUGAGAUUACCCAAGACGAGCAAAACAGCUGCGCUACAGAAAAGUAAACUUAACCUUGCAGAGUUCCUUAAUGAAGAUACAAGUUAAGAGAGC,0.451
UCCCAAAUCCAGCAGCUAGAAGGAGCCUUGAGACAAAGCCUGGAAAUACAGGGAAGGCGAUAACAUUGUACAUUGGUUUACAUUUUUUCCCCCUGUGGAUUUUUCUAGAGGUCAUAGUGC,0.511
ACCAUUUUCGCGGUUCAGGCUUUGUGUGUAGUUCACUUACGGUAUUAAAUUAUUAUUCUGCUUAGCUUAUAAUAAGGAUAAUUGCAUGAUUUAAGUAUACUGAAUGUUACUCUGAAACUU,0.384
AAAGGCAAAAAGGGCAGCUGUGUCAUUUCAUAAGUAACUCUGGGGGAGGGAAAUUCUGUUCUUUUGUUUAAUUUUCCCCCAAAUGAAGCCAAAGUGUUUUUUAAGGAACUGAGAAAAAAU,0.402
AGAGAUAAGACAUCCAGGAACAUGCGAGGCUCCCGGAUGAAUGGGUUGCCUAGCCCCACUCACAGCGCCCACUGUAGCUUCUACCGAACCAGAACCUUGCAGGCAUUAAGUAAUGAGAAG,0.161

# Set 6
# Target: Sal-like protein 4, full length isoform A (SALL4, Homo sapiens, UniProt Q9UJQ4, residues 1-1053)
# Sequence of UniProt Q9UJQ4 (whole entry, looked up): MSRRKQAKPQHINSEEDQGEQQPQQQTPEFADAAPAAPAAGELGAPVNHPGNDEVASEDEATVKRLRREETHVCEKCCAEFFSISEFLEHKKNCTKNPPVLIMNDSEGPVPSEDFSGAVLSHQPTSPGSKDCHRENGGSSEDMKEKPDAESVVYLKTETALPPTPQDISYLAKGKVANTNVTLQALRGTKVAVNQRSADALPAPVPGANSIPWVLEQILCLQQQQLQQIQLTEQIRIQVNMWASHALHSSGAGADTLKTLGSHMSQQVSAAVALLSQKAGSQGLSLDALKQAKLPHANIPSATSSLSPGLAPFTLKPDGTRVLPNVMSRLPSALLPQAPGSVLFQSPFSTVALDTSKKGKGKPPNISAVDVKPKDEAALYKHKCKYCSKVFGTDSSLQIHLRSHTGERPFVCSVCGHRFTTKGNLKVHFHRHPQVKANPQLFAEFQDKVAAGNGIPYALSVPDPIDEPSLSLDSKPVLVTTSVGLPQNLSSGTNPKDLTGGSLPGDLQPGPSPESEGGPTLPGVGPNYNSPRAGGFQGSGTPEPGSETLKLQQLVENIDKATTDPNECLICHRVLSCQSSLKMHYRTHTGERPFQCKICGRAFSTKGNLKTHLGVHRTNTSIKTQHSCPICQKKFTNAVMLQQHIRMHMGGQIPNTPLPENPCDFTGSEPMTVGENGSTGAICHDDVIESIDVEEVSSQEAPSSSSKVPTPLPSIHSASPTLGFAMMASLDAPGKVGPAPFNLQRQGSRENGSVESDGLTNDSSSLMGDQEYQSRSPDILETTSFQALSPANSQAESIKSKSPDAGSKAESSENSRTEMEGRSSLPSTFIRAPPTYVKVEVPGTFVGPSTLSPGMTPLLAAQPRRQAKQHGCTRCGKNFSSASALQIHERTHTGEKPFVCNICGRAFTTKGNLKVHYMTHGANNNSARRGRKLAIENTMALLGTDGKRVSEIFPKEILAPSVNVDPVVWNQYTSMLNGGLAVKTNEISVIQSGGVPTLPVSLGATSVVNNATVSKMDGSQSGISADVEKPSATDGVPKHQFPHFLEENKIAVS
# Method: universal PBM
# Molecule type: double-stranded DNA, one strand shown
# Medium: in vitro
# Tested at: 600 nM
# Notes: 8-mer, flanks averaged, mean of replicates
# Direction: higher = stronger binding
Strand,E-score
GCGGTAGC,-0.187
ACAAACCC,0.0318
AGCTAAAT,0.0652
AGTCTCAG,-0.0654
CGCGGCAG,-0.336
ACTTCTTC,0.0599
TATACCGA,0.2
CCTTCACA,0.157
GTGATTAA,0.233
CCGTCAAG,-0.212
AAGTAGAG,0.135
CCAGTCGC,-0.237
GCCTTACA,-0.0731
CAAGTAAC,0.192
AGTACGTC,0.0708
AGAAAGGC,-0.0461
ACCTGTCA,-0.107

# Single results of other studies
Sequence,target,test,system,conditions,scale,quantity,result
REASKSRVQLFKDDPM,human cyclin E1-Cln2 fusion,"yeast growth, competitive growth deep sequencing","peptide, Saccharomyces cerevisiae",peptide tiling library,direction not given,enrichment score,-1.99

# A few entries again (set 3):
Strand,E-score
AGTGGACC,0.0213
CCCTGCGG,0.145
ACGCTGGC,0.0495
AAAAGAGG,-0.103
AACGGTGA,-0.0491
ATACCCTC,0.0773
AGATGGGG,-0.0917
ACCGCTCC,0.124
AATTTCAG,0.0173
AATTAATC,0.205
